Earlier results that unrelated publications cite.
Protocols differ between the studies behind these lines. Numbers after ± are the reported error.
Sequence of UniProt Q96D53 (whole entry, looked up): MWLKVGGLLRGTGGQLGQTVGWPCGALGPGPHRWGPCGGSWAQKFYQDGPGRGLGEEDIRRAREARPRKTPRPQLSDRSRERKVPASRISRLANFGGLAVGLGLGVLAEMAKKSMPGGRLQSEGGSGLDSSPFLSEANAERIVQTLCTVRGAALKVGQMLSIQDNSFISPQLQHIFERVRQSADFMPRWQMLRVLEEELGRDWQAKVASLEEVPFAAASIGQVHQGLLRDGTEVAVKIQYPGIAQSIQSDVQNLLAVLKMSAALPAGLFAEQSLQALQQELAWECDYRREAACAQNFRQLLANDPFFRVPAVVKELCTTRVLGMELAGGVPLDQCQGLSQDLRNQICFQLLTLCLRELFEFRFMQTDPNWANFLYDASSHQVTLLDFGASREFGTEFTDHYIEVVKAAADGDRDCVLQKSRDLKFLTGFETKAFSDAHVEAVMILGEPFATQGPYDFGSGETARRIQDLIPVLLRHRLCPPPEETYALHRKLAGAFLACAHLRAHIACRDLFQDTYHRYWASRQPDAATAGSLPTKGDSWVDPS

SMILES | tested on | assay | test system | conditions | scale | measurement | value
COc1cc(N2CCC3(CCN(C)CC3)CC2)ccc1Nc1ncc(Cl)c(Nc2ccccc2P(C)(C)=O)n1 |  |  | human | oral |  | Tmax | ~2 h
Cc1ccccc1CN1C(=O)C2=C(CCN(Cc3ccccc3)C2)N2CCN=C12 |  |  | human | oral, 625 mg, high-fat meal |  | Tmax | 2.25 h
CO[C@@H](C)Cn1c(=O)n(C)c2cnc3ccc(-c4cncc(C(C)(C)O)c4)cc3c21 |  |  | human | oral |  | Tmax | 1 to 2 h
CC1(C)S[C@@H]2[C@H](NC(=O)[C@H](N)c3ccccc3)C(=O)N2[C@H]1C(=O)O | Acinetobacter baumannii |  | clinical isolate RKI-No_19/09 |  |  | MIC | > 16 µg/mL
O=C(O)[C@H]1O[C@@H](Oc2ccc([C@@H]3[C@@H](CC[C@H](O)c4ccc(F)cc4)C(=O)N3c3ccc(F)cc3)cc2)[C@H](O)[C@@H](O)[C@@H]1O |  |  | human | oral, 20 mg ezetimibe, given alone, nearest sampling time |  | Tmax | ~1.33 h
O=C(c1cc(Cc2n[nH]c(=O)c3ccccc23)ccc1F)N1CCN(C(=O)C2CC2)CC1 |  |  | human | oral tablet, 100 mg twice daily, multiple dose |  | Tmax | 2 h
CC(C)Nc1nc2cc(Cl)c(Cl)cc2n1[C@H]1O[C@@H](CO)[C@H](O)[C@@H]1O |  |  | human | oral, dose not given |  | Tmax | 1 to 3 h
O=C(O)c1cc(O)c(O)c(O)c1 |  |  | human | oral, 50 mg |  | Tmax | 1.6 h
CCN1CCN(Cc2ccc(Nc3ncc(F)c(-c4cc(F)c5nc(C)n(C(C)C)c5c4)n3)nc2)CC1 |  |  | human | 100 mg twice daily, multiple dose, tablet |  | Tmax | 6.86 h
CNC(C)C1CCC(N)C(OC2C(N)CC(N)C(OC3OCC(C)(O)C(NC)C3O)C2O)O1 (stereo not shown) | Acinetobacter baumannii |  | clinical isolate RKI-No_523/16 |  |  | MIC | > 8 µg/mL
O=C(CCCCCCC(=O)Nc1ccccc1)NO |  |  | human | oral, dose not given |  | Tmax | 1.78 h
Cc1cc(C)c(CNC(=O)c2cc(Cl)c3c(c2C)O[C@@](C)([C@H]2CC[C@H](N(C)C)CC2)O3)c(=O)[nH]1 |  |  | human non-Hodgkin lymphoma patients | oral, 150 to 300 mg once daily |  | Tmax | 2 to 4 h
COc1cc2c(Oc3ccc4[nH]c(C)cc4c3F)ccnc2cc1OCC1(N)CC1 |  |  | human | 16 mg single dose |  | Tmax | 11 ± 8.9 h
Cc1nc(-c2ccc(OCC(C)C)c(C#N)c2)sc1C(=O)O |  |  | human | oral, 120 mg, fasting |  | Tmax | 1.7 ± 1.1 h
COCCc1ccc(OCC(O)CNC(C)C)cc1 (stereo not shown) |  |  | human, fasted | 200 mg single dose, median |  | Tmax | 8.94 h
Cc1cccc(F)c1N1CCC(N2Cc3cn(CC(C)(F)F)nc3N(Cc3ccccc3C(F)(F)F)C2=O)CC1 |  |  | human | range over 0.5-200 mg, single dose, fed |  | Tmax | 2.5 to 3.5 h
CCN(CC)Cc1ccc2cc(COC(=O)Nc3ccc(C(=O)NO)cc3)ccc2c1 |  |  | healthy male humans | oral, 100 mg |  | Tmax | 2.1 h
Nc1cc(C(F)(F)F)c(-c2nc(N3CCOCC3)nc(N3CCOCC3)n2)cn1 | COQ8B (Homo sapiens, UniProt Q96D53) | enzyme activity |  | 10 µM | baseline: untreated | remaining activity | 99%
C[C@H]1CO[C@@H]2Cn3cc(C(=O)NCc4ccc(F)cc4F)c(=O)c(O)c3C(=O)N12 |  |  | human | oral tablet, median fasted |  | Tmax | 2.5 h ours
Cc1cc(C)c(CNC(=O)c2cc(Cl)c3c(c2C)O[C@@](C)([C@H]2CC[C@H](N(C)C)CC2)O3)c(=O)[nH]1 |  |  | human, plasma | oral, 100 mg single dose, study, median |  | Tmax | 4 h
C#C[C@]1(O)CC[C@H]2[C@@H]3CCc4cc(O)ccc4[C@H]3CC[C@@]21C |  |  | human, fed | 0.025 mg multiple doses, median |  | Tmax | 2 h
CNCc1cc(-c2ccccc2F)n(S(=O)(=O)c2cccnc2)c1 |  |  | human, plasma | 40 mg multiple dose, observed clinical data |  | Tmax | 1.5 h

Excerpt of the above:
SMILES | tested on | assay | test system | conditions | scale | measurement | value
CCN(CC)Cc1ccc2cc(COC(=O)Nc3ccc(C(=O)NO)cc3)ccc2c1 |  |  | healthy male humans | oral, 100 mg |  | Tmax | 2.1 h
Nc1cc(C(F)(F)F)c(-c2nc(N3CCOCC3)nc(N3CCOCC3)n2)cn1 | COQ8B (Homo sapiens, UniProt Q96D53) | enzyme activity |  | 10 µM | baseline: untreated | remaining activity | 99%
